Published values from different studies.
Each line is one published result; not all experiments were run side by side. ± gives the spread as reported.
MAL12: Alpha-glucosidase MAL12 (MAL12, Saccharomyces cerevisiae S288c, UniProt P53341)
Sequence of UniProt P53341 (whole entry, looked up): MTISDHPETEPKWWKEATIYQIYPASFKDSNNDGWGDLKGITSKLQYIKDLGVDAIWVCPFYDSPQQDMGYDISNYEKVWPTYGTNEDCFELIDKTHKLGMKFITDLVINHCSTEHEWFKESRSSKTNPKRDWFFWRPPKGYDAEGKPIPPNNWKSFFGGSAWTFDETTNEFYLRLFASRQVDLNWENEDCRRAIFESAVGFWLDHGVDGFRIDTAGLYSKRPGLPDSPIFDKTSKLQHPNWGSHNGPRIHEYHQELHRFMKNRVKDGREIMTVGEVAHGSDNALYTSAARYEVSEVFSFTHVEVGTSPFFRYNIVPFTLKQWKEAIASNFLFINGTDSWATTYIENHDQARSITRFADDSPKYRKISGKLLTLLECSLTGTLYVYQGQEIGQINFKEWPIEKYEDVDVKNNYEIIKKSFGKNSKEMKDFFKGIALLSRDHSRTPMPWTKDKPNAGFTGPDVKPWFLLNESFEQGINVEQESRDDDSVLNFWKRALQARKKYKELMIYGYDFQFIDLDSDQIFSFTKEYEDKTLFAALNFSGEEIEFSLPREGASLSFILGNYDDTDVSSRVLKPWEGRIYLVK
RIPK3: Receptor-interacting serine/threonine-protein kinase 3 (RIPK3, Homo sapiens, UniProt Q9Y572)
Sequence of UniProt Q9Y572 (whole entry, looked up): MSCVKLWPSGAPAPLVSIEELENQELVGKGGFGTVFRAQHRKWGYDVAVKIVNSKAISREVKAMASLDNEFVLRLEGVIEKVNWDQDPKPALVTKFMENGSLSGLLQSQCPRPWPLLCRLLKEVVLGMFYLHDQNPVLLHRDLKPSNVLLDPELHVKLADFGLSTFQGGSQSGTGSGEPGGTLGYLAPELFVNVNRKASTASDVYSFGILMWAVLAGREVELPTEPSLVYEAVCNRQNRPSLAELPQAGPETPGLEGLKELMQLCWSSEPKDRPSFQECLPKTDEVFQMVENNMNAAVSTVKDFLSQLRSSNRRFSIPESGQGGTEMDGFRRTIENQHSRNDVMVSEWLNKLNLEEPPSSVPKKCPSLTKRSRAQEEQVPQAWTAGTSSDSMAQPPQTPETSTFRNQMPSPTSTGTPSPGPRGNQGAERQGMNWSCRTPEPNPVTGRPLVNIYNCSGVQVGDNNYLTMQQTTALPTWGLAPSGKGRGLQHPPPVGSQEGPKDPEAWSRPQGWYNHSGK
Inward rectifier potassium channel 4: Inward rectifier potassium channel 4 (Homo sapiens, UniProt P48050)
Sequence of UniProt P48050 (whole entry, looked up): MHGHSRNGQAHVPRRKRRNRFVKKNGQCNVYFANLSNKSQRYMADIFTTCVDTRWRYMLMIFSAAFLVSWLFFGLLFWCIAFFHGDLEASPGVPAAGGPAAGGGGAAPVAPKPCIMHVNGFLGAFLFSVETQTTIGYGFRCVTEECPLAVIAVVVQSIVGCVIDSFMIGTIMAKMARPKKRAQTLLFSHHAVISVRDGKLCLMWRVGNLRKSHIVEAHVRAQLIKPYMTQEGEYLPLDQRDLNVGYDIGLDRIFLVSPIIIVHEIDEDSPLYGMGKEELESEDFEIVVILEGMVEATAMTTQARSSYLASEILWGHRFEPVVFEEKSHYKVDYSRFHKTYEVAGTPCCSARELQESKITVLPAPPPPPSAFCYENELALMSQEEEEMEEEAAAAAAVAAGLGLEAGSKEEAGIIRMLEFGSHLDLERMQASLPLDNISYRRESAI
Urease: Urease (Canavalia ensiformis, UniProt P07374)
Sequence of UniProt P07374 (whole entry, looked up): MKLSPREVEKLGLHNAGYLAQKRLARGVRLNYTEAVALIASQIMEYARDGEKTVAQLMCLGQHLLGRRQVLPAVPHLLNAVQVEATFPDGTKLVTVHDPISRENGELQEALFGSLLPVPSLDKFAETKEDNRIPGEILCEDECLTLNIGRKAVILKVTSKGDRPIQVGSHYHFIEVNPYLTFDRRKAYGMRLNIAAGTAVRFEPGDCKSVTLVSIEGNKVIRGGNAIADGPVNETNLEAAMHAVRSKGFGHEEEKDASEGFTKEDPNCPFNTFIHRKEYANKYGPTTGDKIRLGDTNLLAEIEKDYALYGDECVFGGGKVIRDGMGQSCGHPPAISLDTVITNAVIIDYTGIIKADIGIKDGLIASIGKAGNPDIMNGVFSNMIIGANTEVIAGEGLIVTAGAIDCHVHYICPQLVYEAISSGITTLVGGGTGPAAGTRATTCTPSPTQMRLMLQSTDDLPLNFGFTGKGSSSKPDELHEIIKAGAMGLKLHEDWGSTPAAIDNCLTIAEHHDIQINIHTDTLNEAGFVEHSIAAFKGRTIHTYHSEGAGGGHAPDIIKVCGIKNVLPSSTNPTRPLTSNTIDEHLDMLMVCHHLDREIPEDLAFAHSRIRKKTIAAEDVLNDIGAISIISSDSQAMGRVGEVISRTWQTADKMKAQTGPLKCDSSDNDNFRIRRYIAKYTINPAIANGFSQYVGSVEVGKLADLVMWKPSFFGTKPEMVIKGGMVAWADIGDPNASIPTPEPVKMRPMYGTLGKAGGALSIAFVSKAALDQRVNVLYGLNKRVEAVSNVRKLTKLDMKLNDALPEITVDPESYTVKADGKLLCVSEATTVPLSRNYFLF
KCNJ13 M125R: Inward rectifier potassium channel 13 (KCNJ13, Homo sapiens, UniProt O60928, M125R)
Sequence of UniProt O60928 (whole entry, unmodified, looked up): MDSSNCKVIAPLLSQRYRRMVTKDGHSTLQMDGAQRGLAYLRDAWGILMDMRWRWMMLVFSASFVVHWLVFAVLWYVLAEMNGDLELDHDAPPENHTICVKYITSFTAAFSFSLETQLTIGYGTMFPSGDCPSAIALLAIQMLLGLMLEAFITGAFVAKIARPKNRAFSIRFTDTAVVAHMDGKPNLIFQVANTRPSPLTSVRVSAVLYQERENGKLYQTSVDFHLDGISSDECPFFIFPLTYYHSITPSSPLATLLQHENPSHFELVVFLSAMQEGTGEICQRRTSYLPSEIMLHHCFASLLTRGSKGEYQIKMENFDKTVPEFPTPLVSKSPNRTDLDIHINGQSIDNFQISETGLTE
Sequence of UniProt Q9UNU6 (whole entry, looked up): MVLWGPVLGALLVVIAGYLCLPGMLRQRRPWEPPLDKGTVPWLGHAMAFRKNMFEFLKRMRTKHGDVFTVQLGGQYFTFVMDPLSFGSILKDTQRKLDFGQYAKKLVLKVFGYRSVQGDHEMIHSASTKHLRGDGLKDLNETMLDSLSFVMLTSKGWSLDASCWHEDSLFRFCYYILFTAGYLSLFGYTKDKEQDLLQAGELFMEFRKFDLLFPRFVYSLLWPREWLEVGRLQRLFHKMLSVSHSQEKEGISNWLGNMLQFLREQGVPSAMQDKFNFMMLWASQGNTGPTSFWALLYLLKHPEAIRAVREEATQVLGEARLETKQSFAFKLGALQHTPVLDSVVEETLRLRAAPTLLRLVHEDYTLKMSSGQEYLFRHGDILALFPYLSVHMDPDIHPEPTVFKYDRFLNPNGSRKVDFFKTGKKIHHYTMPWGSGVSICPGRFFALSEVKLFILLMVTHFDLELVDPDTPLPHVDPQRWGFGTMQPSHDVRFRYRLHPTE
Sequence of UniProt Q6NS38 (whole entry, looked up): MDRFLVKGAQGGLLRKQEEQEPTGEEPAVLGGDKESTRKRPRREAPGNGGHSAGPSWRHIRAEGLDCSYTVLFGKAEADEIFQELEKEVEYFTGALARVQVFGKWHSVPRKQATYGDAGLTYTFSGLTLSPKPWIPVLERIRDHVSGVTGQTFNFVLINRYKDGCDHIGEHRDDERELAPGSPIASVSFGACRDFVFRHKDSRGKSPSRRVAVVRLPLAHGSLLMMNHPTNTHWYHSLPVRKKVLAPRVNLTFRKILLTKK
Sequence of UniProt Q6B856 (whole entry, looked up): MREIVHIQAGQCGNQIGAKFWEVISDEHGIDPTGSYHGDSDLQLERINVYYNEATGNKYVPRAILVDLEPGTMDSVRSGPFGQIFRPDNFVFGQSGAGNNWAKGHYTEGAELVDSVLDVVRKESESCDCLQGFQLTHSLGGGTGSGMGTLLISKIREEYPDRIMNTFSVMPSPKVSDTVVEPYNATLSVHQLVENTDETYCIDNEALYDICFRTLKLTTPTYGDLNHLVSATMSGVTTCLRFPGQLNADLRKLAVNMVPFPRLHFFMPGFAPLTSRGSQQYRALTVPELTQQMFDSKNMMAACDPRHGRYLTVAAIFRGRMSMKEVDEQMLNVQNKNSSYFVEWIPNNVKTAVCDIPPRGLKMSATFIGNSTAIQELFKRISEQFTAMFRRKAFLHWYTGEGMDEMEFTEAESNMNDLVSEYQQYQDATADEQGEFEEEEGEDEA
Sequence of UniProt P18564 (whole entry, looked up): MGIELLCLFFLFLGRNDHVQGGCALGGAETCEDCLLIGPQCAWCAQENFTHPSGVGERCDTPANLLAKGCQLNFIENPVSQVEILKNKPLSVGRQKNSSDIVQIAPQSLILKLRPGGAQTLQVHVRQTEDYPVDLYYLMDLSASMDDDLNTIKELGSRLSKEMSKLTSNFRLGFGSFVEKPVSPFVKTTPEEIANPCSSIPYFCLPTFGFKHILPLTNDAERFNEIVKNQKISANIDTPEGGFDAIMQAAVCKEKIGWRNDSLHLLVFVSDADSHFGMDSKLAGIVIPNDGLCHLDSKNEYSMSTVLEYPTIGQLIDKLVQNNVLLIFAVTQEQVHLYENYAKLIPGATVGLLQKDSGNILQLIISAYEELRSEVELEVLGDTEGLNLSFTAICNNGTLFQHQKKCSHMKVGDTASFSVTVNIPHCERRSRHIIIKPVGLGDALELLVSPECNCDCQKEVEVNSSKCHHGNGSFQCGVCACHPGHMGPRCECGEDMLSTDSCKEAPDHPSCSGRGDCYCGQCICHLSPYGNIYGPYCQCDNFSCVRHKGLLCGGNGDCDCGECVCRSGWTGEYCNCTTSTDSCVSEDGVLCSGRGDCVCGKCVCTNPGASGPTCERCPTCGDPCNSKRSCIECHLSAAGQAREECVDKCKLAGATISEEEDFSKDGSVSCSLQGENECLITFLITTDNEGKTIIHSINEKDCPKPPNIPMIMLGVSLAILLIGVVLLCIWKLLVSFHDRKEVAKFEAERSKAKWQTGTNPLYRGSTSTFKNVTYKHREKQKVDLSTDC

| Molecule | target | assay | test system | conditions | IC50 |
| --- | --- | --- | --- | --- | --- |
| COc1ccc([C@H](CC(=O)O)N2CCN(CCCc3ccc4c(n3)NCCC4)C2=O)cn1 | Integrin alpha-V/beta-6 (Homo sapiens, UniProt P06756+P18564) | LAP binding, inhibitor, ELISA | – | – | 0.0007 ± 0.0005 µM |
| COc1cc(C2C(C#N)=C(N)Oc3c2c(=O)[nH]c2ccccc32)ccc1OCc1cn(Cc2ccc(F)cc2)nn1 (stereo not drawn) | MAL12 | enzyme activity | – | – | 15.9 ± 0.2 µM |
| CN1C(=O)NC(Cc2c[nH]c3c(Cl)cccc23)C1=O (stereo not drawn) | RIPK3 | enzyme activity, inhibitor, ADP-Glo kinase | – | 20 ng enzyme | > 10 µM |
| CC(C)(C)n1nc(-c2ccc3sc(C4CCCC4)nc3c2)c2c(N)ncnc21 | RIPK3 | enzyme activity, inhibitor, ADP detection | – | – | 0.081 µM |
| COc1ccc(C(=O)NC2(C(=O)O)Cc3ccccc3C2)cc1OCCc1cccc(C)c1 | Lysophosphatidic acid receptor 1 (LPAR1, Homo sapiens, UniProt Q92633) | calcium flux, antagonist, FLIPR | primary SSc dermal fibroblasts | together with: LPA | 0.237 µM |
| Oc1cc(O)c2c(c1)O[C@H](c1ccc(O)c(O)c1)[C@H](O)[C@H]2c1c(O)cc(O)c2c1O[C@H](c1ccc(O)c(O)c1)[C@H](O)[C@H]2c1c(O)cc(O)c2c1O[C@H](c1ccc(O)c(O)c1)[C@H](O)C2 | alpha-glucosidase (Bacillus stearothermophilus) | inhibitor | – | 20 min, pH 6.8, 60 °C, together with: pNPG substrate | 3.4 ± 1.1 µM |
| N#Cc1cc(F)cc(OCC(O)Cn2c(=N)n(Cc3ccccc3)c3ccccc32)c1 (stereo not drawn) | Inward rectifier potassium channel 4 | ion flux, inhibitor, fluorescence | – | – | 7.15 µM |
| Cl.Cl.Cl.Cl.Cl.Cl.N.N.N.N.N.N.N.N.N.N.N.N.N.N.[O-2].[O-2].[Ru+3].[Ru+3].[Ru+4] | Kcnk2 (Mus musculus, UniProt P97438, G152I/I125D) | inhibitor, two-electrode voltage clamp | Xenopus oocytes | C-type gate gain-of-function mutant | 0.154 ± 0.023 µM |
| NC(=S)N/N=C/c1cc2ccccc2nc1SCc1cn(CC(=O)NCCc2ccccc2)nn1 | MAL12 | enzyme activity, inhibitor | – | – | ≤ 70.3 µM |
| C[C@@H]1O[C@@H](OC[C@H]2O[C@@H](Oc3cc(O)c4c(=O)cc(-c5ccc(O)cc5)oc4c3)[C@H](O)[C@@H](O)[C@@H]2O)[C@H](O)[C@H](O)[C@H]1O | tyrosinase (Agaricus bisporus) | enzyme activity | – | 30 min, pH 6.8, 37 °C, together with: L-DOPA | 670 µM |
| CCc1oc2ccc(F)cc2c1C(=O)c1cc(Br)c(O)c(Br)c1 | Solute carrier family 22 member 12 (SLC22A12, Homo sapiens, UniProt Q96S37) | transporter uptake, inhibitor, radiometric | – | oocytes | 0.006 µM |
| Cc1cc(CNc2cc(N3CCN(S(=O)(=O)c4ccc(F)cc4)CC3)ccc2[N+](=O)[O-])no1 | Kir1 channel protein (Aedes aegypti, UniProt L0EQS9) | ion flux, inhibitor, fluorescence | – | – | 0.736 µM |
| CC(C)(c1ccc(O)cc1)c1ccc(OCc2cccc(COc3ccc(C(=N)N)cc3)c2)cc1 | Leukotriene B4 receptor 1 (Cavia porcellus, UniProt H0VYV8, H83G/K88G/S309A) | radioligand binding, competition binding | – | 12 h, 4 °C, together with: 0.5 nM [3H]-LTB4 | 0.0064 µM |
| tannic acid | DNA oxidative demethylase ALKBH2 (ALKBH2, Homo sapiens, UniProt Q6NS38) | enzyme activity, inhibitor, HPLC | – | 1 h, 37 °C, 2-oxoglutarate and Fe(II) present, together with: 1-methyladenine in single-stranded DNA | 1.8 µM |
| C=C1C(=O)O[C@H]2[C@H]1CC/C(C)=C/CC[C@@]1(C)O[C@@H]21 | HDAC (Lucilia cuprina egg nuclear extract) | enzyme activity, inhibitor, fluorometric | – | – | > 100 µM |
| N=c1n(Cc2ccccc2)c2ccccc2n1CC(O)COc1ccc(Cl)cc1Cl (stereo not drawn) | Inward rectifier potassium channel 4 | ion flux, inhibitor, fluorescence | – | – | 5.33 µM |
| Cc1ccc(Cn2cc(COc3cccc(C4C(C#N)=C(N)Oc5c4c(=O)[nH]c4ccccc54)c3)nn2)cc1 (stereo not drawn) | MAL12 | enzyme activity | – | – | 14.52 ± 0.05 µM |
| moenomycin | Transglycosylase (Staphylococcus aureus, UniProt Q9R744) | transglycosylase activity, inhibitor | RN4220 | 1 h, pH 7.0, 30 °C, 10% DMSO, together with: [14C]-lipid II D-Ala-D-Ala 4 µM | 0.16 ± 0.08 µM |
| Clc1ccc(COC(Cn2ccnc2)c2ccc(Cl)cc2Cl)cc1 (stereo not drawn) | 7-alpha-hydroxycholest-4-en-3-one 12-alpha-hydroxylase (Homo sapiens, UniProt Q9UNU6) | enzyme activity, inhibitor | – | 2 min, together with: 7α-hydroxycholest-4-en-3-one 0.5 µM (Km) | 0.803 µM |
| S=C(Nc1ccc(Br)cc1)N1CCc2ccccc2C1 | Urease | enzyme activity, inhibitor, absorbance | – | – | 30.7 µM |

| Molecule | target | assay | test system | conditions | IC50 |
| --- | --- | --- | --- | --- | --- |
| CC12CC3CC(C)(C1)CC(N)(C3)C2 | Glutamate receptor 2 (Gria2, Rattus norvegicus, UniProt P19491) | ion current, inhibitor, whole-cell patch-clamp | – | holding potential -60 mV, together with: glutamate 10 mM, cyclothiazide 100 µM | 48 ± 3 µM |
| O=c1cc(-c2cccc3ccccc23)[nH][nH]1 | Alkaline phosphatase, tissue-nonspecific isozyme (ALPL, Homo sapiens, UniProt P05186) | enzyme activity, inhibitor, luminescence | – | together with: 1 µM CDP-star, 100 mM DEA | 1.15 ± 0.058 µM |
| N=c1n(Cc2ccccc2)c2ccccc2n1CC(O)COc1ccccc1 (stereo not drawn) | KCNJ13 M125R | ion flux, inhibitor | – | – | 4.47 µM |
| Cc1cc(C)cc(S(=O)(=O)c2c(C(=O)NCCCCNS(=O)(=O)c3cccnc3)[nH]c3ccc(Cl)cc23)c1 | Gag-Pol polyprotein, reverse transcriptase (gag-pol, Human immunodeficiency virus 1, UniProt P03366) | reverse transcriptase activity, inhibitor, ELISA | – | – | 0.07 ± 0.009 µM |
| N=c1n(Cc2ccccc2)c2ccccc2n1CC(O)COc1ccc(Cc2ccccc2)cc1 (stereo not drawn) | KCNJ13 M125R | ion flux, inhibitor | – | – | 6.07 µM |
| CN(C)c1cc2c(Nc3ccc4c(cnn4Cc4ccccc4)c3)ncnc2cn1 | Potassium channel subfamily K member 18 (KCNK18, Homo sapiens, UniProt Q7Z418) | ion flux, inhibitor | – | – | 26.6 µM |
| CC(C)C[C@H](NC(=O)OCc1ccccc1)C(=O)N[C@@H](CC(C)C)C(=O)N[C@@H](Cc1ccc(O)cc1)C(=O)CF | Calpain-1 catalytic subunit (CAPN1, Homo sapiens, UniProt P07384) | enzyme activity, inhibitor, fluorescence | – | – | 0.0162 µM |
| C[C@@H](CNCc1ccccc1)N1C[C@H](CCCNC(=N)N)N(CCc2cccc(F)c2)C1=S | central imidazoline I2 site | binding, radioligand displacement | – | – | > 1 µM |
| C#CCOc1ccc2c(c1)C(=O)CC(c1ccccc1)O2 (stereo not drawn) | Cytochrome P450 2B1 (Cyp2b1, Rattus norvegicus, UniProt P00176) | enzyme activity, inhibitor | supersomes | together with: pentoxyresorufin 5 µM | 2.35 µM |
| Cc1ccc(S(=O)(=O)/C=C/C#N)cc1 | Ubiquitin carboxyl-terminal hydrolase 7 (USP7, Homo sapiens, UniProt Q93009) | deubiquitinase activity, inhibitor, MALDI-TOF DUB | – | 60 min, 30 °C, 35 min pre-incubation, together with: diubiquitin substrate | 0.19 µM |
| NC(=O)[C@@H]1CC[C@@H]2CN1C(=O)N2OS(=O)(=O)O | dacA (Streptococcus pneumoniae, UniProt Q8DQ99) | binding, Bocillin FL competition | Streptococcus pneumoniae R6 membranes | together with: 100 µM Bocillin FL | 30.5 µM |
| O=c1c(O)c(-c2ccc(O)cc2)oc2c(Br)c(O)cc(O)c12 | α-glucosidase (Saccharomyces cerevisiae) | inhibitor | – | together with: pNPG | 173 ± 2.35 µM |
| Cc1ccc(Cn2cc(COc3ccc(/C=N/NC(=O)COc4cc(C)cc5oc(=O)cc(C)c45)cc3)nn2)cc1 | Urease | enzyme activity, inhibitor | – | – | 3.58 ± 0.91 µM |
| CC(C)C[C@H](NC(=O)N1CCOCC1)C(=O)N[C@H](/C=C/S(=O)(=O)c1ccccc1)CCc1ccccc1 | Dipeptidyl peptidase 1 (CTSC, Bos taurus, UniProt Q3ZCJ8) | enzyme activity, inhibitor, fluorescence | – | pH 5.5, with preincubation | 5.16 µM |
| FC(F)(F)c1cccc(NC(=S)N2CCc3ccccc3C2)c1 | Urease | enzyme activity, inhibitor, absorbance | – | – | 26.8 µM |
| COC(=O)C1=C(C)NC(C)=C(C(=O)OCCN(C)Cc2ccccc2)C1c1cccc([N+](=O)[O-])c1 (stereo not drawn) | Multidrug resistance-associated protein 1 (ABCC1, Homo sapiens, UniProt P33527) | efflux, inhibitor | SupT1-Vin overexpressing ABCC1 | together with: SYTO 13 100 nM | 1.4 ± 1.1 µM |
| CCn1c(=O)/c(=C2\Sc3cc(Cl)ccc3N2C)s/c1=C\c1scc[n+]1Cc1ccccc1 | Heat shock 70 kDa protein 1A, with Bag2 (HSPA1A, Homo sapiens, UniProt P0DMV8) | protein-protein interaction, inhibitor, flow cytometry protein interaction | – | together with: labeled Bag2 50 nM | 1.2 ± 0.1 µM |
| Nc1nc2c(ncn2[C@@H]2O[C@H](COP(=O)(O)OP(=O)(O)O)[C@@H](O)[C@H]2O)c(=O)[nH]1 | Tubulin alpha-1B chain/TUBB2B (Bos taurus, UniProt P81947+Q6B856) | tubulin assembly, inhibitor, turbidimetry | – | tubulin 30 µM, GTP 5 µM, together with: paclitaxel 30 µM | 58 ± 20 µM |
| [Co+2] | Transient receptor potential cation channel subfamily V member 1 (Trpv1, Rattus norvegicus, UniProt O35433) | calcium uptake | HaCaT expressing rat TRPV1 | approximate | ~15 µM |

Some of these lines once more:
| Molecule | target | assay | test system | conditions | IC50 |
| --- | --- | --- | --- | --- | --- |
| CN(C)c1cc2c(Nc3ccc4c(cnn4Cc4ccccc4)c3)ncnc2cn1 | Potassium channel subfamily K member 18 (KCNK18, Homo sapiens, UniProt Q7Z418) | ion flux, inhibitor | – | – | 26.6 µM |
| Oc1cc(O)c2c(c1)O[C@H](c1ccc(O)c(O)c1)[C@H](O)[C@H]2c1c(O)cc(O)c2c1O[C@H](c1ccc(O)c(O)c1)[C@H](O)[C@H]2c1c(O)cc(O)c2c1O[C@H](c1ccc(O)c(O)c1)[C@H](O)C2 | alpha-glucosidase (Bacillus stearothermophilus) | inhibitor | – | 20 min, pH 6.8, 60 °C, together with: pNPG substrate | 3.4 ± 1.1 µM |
